Assay results of several laboratories.
“And” joins repeats or separate records; there may be more than shown. Numbers after ± are the reported error.
Uncharacterized protein: Uncharacterized protein (Pelagibacter ubique, UniProt Q4FMA9)
MBLAC2: MBLAC2 (Homo sapiens, UniProt Q68D91)
Chain of UniProt Q68D91 (whole entry, looked up): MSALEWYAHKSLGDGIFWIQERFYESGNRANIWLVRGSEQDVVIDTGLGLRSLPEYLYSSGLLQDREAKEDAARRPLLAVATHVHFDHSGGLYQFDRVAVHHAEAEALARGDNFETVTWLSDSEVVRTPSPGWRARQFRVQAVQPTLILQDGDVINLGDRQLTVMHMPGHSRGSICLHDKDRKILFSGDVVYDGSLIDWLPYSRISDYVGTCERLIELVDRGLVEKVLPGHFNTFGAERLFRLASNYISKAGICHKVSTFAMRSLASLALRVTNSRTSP
CDK2: Cyclin-dependent kinase 2 (CDK2, Homo sapiens, UniProt P24941)
CDK2 with cyclin A: Cyclin-dependent kinase 2, with cyclin A (CDK2, Homo sapiens, UniProt P24941)
PPIA: Peptidyl-prolyl cis-trans isomerase A (PPIA, Homo sapiens, UniProt P62937)
Chain of UniProt P62937 (whole entry, looked up): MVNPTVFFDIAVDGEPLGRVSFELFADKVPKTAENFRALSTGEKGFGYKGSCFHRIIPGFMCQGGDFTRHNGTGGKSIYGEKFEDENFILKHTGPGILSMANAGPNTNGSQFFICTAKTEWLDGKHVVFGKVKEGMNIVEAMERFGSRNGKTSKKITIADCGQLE
WD repeat-containing protein 91 residues 392–747: WD repeat-containing protein 91, residues 392–747 (Homo sapiens, UniProt A4D1P6)
Chain of UniProt A4D1P6 (whole entry, looked up): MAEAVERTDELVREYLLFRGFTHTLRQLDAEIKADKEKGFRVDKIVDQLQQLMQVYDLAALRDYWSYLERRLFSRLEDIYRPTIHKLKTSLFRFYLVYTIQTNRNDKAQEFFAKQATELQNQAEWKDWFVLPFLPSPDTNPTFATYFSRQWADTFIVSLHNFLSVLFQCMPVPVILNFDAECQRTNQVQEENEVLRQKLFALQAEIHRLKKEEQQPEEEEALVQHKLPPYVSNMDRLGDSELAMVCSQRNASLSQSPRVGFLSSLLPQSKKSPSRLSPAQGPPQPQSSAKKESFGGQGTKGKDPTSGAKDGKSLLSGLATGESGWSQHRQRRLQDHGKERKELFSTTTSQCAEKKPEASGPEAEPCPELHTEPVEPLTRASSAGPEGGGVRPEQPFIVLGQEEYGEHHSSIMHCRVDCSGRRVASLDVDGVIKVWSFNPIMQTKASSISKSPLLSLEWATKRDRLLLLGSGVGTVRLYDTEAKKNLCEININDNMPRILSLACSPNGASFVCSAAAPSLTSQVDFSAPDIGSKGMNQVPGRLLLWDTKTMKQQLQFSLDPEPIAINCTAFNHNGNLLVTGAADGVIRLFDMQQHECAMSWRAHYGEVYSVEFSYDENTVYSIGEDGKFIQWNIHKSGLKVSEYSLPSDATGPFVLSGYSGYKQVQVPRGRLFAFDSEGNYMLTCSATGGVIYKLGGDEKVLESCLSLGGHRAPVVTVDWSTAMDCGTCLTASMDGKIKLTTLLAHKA
Chain of UniProt Q5T1C6 (whole entry, looked up): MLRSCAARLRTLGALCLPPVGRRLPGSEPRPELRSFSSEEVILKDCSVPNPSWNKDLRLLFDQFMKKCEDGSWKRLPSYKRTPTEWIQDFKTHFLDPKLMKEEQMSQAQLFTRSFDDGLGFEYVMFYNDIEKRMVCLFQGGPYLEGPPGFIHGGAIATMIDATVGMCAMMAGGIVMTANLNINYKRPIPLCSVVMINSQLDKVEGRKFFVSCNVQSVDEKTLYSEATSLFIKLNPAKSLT
Chain of UniProt Q13547 (whole entry, looked up): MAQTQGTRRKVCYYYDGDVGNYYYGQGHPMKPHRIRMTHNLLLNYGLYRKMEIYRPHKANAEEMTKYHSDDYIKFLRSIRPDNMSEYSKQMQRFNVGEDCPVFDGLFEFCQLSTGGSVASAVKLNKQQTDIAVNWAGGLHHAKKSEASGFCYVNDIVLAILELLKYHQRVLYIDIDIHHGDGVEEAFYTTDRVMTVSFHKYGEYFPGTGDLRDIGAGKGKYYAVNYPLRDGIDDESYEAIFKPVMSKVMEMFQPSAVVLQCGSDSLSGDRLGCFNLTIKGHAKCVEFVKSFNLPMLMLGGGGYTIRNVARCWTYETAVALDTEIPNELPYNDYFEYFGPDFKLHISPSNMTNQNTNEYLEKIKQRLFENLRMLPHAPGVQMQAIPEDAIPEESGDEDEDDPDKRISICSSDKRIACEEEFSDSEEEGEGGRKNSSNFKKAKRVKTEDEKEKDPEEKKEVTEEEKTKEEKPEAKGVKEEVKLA
Chain of UniProt P48426 (whole entry, looked up): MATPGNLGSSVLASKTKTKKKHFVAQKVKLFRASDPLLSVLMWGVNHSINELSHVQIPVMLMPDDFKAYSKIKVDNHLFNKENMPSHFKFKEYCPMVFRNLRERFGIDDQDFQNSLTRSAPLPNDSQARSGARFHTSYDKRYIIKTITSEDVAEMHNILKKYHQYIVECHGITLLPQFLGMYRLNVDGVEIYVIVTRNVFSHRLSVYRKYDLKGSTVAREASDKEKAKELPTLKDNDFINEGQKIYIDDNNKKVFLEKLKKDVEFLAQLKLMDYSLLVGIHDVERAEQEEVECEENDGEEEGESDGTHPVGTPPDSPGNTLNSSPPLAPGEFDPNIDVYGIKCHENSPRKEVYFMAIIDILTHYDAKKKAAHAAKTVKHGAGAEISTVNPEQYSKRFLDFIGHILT
Chain of UniProt Q9BZ95 (whole entry, looked up): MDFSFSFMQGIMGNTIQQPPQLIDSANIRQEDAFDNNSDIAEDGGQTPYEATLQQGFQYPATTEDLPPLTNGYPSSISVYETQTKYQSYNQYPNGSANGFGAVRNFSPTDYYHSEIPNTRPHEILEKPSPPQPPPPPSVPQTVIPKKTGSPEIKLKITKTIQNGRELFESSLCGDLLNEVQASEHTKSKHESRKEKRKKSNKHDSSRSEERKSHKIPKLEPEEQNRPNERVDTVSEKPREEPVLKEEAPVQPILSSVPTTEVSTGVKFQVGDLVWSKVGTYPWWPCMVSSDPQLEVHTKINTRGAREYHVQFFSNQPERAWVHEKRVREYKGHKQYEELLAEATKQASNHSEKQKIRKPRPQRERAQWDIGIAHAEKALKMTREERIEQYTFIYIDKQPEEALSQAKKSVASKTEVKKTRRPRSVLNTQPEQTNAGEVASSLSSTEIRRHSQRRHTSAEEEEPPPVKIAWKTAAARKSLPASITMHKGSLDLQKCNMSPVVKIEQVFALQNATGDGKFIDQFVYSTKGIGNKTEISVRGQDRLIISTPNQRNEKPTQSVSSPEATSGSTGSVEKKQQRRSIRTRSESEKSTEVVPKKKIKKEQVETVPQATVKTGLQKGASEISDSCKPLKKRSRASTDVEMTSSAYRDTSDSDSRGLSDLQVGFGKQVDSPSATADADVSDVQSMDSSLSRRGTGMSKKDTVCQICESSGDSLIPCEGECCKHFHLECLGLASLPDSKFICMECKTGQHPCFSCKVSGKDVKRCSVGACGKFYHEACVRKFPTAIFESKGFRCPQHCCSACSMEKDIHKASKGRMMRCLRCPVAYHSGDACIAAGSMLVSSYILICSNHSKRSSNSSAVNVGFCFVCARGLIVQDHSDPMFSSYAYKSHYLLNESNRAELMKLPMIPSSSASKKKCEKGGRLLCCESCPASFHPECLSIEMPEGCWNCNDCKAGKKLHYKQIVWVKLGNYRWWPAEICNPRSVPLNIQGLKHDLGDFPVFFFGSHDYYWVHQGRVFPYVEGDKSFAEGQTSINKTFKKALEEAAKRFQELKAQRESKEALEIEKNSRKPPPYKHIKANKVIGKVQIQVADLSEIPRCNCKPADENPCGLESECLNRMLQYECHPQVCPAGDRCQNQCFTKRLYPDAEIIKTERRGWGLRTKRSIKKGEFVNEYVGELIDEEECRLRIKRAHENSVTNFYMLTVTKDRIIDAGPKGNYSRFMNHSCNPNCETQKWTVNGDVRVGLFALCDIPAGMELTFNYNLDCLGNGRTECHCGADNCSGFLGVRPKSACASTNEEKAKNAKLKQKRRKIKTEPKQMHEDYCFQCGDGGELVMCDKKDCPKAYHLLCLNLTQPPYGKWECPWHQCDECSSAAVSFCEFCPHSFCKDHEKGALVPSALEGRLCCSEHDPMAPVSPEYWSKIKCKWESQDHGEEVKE
Chain of UniProt Q16774 (whole entry, unmodified, looked up): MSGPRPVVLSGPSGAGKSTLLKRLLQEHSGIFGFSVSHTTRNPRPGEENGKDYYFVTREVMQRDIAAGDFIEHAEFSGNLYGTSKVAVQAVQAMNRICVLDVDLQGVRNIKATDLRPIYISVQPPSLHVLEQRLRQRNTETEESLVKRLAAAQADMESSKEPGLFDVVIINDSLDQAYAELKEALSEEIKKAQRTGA
Chain of UniProt P52790 (whole entry, looked up): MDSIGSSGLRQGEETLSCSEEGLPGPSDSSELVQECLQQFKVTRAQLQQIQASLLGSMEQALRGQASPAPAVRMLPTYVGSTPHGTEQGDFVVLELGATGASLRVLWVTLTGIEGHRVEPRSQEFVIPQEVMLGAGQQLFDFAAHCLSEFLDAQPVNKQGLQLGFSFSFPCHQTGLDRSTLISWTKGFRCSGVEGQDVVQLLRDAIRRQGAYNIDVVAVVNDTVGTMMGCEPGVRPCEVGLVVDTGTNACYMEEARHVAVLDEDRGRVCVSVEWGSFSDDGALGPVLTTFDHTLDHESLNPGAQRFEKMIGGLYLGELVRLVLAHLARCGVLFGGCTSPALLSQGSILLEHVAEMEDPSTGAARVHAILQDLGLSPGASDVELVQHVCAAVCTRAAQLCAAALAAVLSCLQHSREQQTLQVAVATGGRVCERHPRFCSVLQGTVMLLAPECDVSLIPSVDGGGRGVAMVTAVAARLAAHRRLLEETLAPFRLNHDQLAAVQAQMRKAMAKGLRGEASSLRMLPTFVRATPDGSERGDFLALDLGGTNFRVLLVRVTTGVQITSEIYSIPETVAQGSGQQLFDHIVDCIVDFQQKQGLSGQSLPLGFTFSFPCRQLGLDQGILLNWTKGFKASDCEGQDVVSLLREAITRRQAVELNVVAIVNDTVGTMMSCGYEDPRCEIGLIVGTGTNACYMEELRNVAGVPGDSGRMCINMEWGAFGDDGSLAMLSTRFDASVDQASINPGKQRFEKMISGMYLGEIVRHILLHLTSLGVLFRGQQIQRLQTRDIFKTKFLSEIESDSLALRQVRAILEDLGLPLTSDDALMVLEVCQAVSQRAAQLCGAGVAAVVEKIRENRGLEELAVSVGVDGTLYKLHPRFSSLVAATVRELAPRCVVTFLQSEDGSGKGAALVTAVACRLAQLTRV

Compound	target	assay	test system	conditions	Kd
CC[C@H](CO)Nc1nc(NCc2ccc(-c3ccccn3)cc2)c2ncn(C(C)C)c2n1	Phosphatidylinositol 5-phosphate 4-kinase type-2 alpha (PIP4K2A, Homo sapiens, UniProt P48426)	binding, competition affinity chromatography	SH-SY5Y cell extract	–	8.68 µM
O=C1COc2cc(C(=O)N(Cc3ccc(C(=O)Nc4ccncn4)cc3)C3CC3)ccc2N1	Histone-lysine N-methyltransferase NSD3, PWWP1 domain (NSD3, Homo sapiens, UniProt Q9BZ95)	binding, SPR	–	–	> 30 µM
CC(=O)N[C@H]1[C@H](O[C@H]2[C@H](O)[C@@H](NC(C)=O)[C@H](O[C@H]3[C@H](O)[C@@H](NC(C)=O)[C@H](O[C@H]4[C@H](O)[C@@H](NC(C)=O)C(O)O[C@@H]4CO)O[C@@H]3CO)O[C@@H]2CO)O[C@H](CO)[C@@H](O[C@@H]2O[C@H](CO)[C@@H](O[C@@H]3O[C@H](CO)[C@@H](O[C@@H]4O[C@H](CO)[C@@H](O[C@@H]5O[C@H](CO)[C@@H](O)[C@H](O)[C@H]5NC(C)=O)[C@H](O)[C@H]4NC(C)=O)[C@H](O)[C@H]3NC(C)=O)[C@H](O)[C@H]2NC(C)=O)[C@@H]1O (stereo partly drawn)	uncharacterized protein (Medicago truncatula, UniProt G7JRT6)	binding	–	–	171 µM
O=S(=O)(O)CCO	Uncharacterized protein	binding, isothermal titration calorimetry	Candidatus Pelagibacter ubique	together with: CaCl2 10 mM	0.391 ± 0.151 µM
O=C(CCCCCCC(=O)Nc1ccccc1)NO	MBLAC2	inhibitor, competition pulldown	SW620 and MV4-11 lysate	1 h	> 30.2 µM
COc1ccc(OCC(=O)Nc2cc(-c3nn4c(C)nnc4s3)ccc2C)cc1	CDK2	binding	–	–	> 100 µM
OC[C@H]1OC(O)[C@H](O)[C@@H](O)[C@@H]1O (stereo partly drawn)	Interferon regulatory factor 6 (IRF6, Homo sapiens, UniProt O14896, P104G)	binding, microscale thermophoresis	–	–	1170 ± 600 µM
COc1cc(-c2nnc(SCC(N)=O)n2C)cc(OC)c1OC	CDK2	binding	–	–	> 100 µM
CC1=C(C)C(=O)c2ccccc2C1=O	Reaction center protein L chain, QB site (pufL, Cereibacter sphaeroides, UniProt P0C0Y8)	QB site binding, competitive inhibitor	–	–	> 100 µM
O=C(Nc1cc(C2CCCCC2)[nH]n1)c1ccc(Br)cc1	CDK2 with cyclin A	ITC	–	298 K, together with: cyclin A	> 100 µM
O=C(NO)c1cnc(NC2(c3ccccc3)CC2)nc1	MBLAC2	inhibitor, competition pulldown	SW620 and MV4-11 lysate	1 h	> 30.2 µM
O=P([O-])([O-])O.[Na+].[Na+]	SAR11_1179 Candidatus Pelagibacter ubique	isothermal titration calorimetry	–	together with: Na2SO4 28 mM	0.711 µM and 0.94 µM and 0.97 µM and 0.948 µM
Nc1ncnc2c1ncn2[C@@H]1O[C@H](CO[P@](=O)(O)O[P@](=O)(O)O[P@@](=O)(O)S)[C@@H](O)[C@H]1O	GUK1 (Homo sapiens, UniProt Q16774, S13A)	binding, ITC	–	25 °C	110 ± 10 µM
O=C(CC1OCCN(Cc2ccccc2)C1=O)Nc1ccc2c(c1)OCCO2 (stereo not drawn)	CDK2 with cyclin A	–	–	–	> 100 µM
C[N+](C)(C)CCC(=O)c1cccc2ccccc12	PPIA	HDX MALDI-MS	–	–	4 µM
Cn1cc(CNCC2CCN(c3ncc(C(=O)NO)cn3)CC2)c2ccccc21	MBLAC2	inhibitor, competition pulldown	SW620 and MV4-11 lysate	1 h	1.45 µM
N#Cc1cccc2c1CC[C@H]2NC(=O)c1ccc(S(=O)(=O)NCc2ccco2)cc1	WD repeat-containing protein 91 residues 392–747	SPR	–	–	8.7 µM and 9 µM
CC(=O)N(C1=C(Cl)C(=O)c2ccccc2C1=O)C1CCCCC1	PPIA	HDX MALDI-MS	–	–	2 µM
N#Cc1cccc2c1CC[C@H]2NC(=O)c1ccc(SCc2cn3ccccc3n2)cc1	WD repeat-containing protein 91 residues 392–747	SPR	–	–	5.8 µM and 5.3 µM
O=C(CSc1nnc(-c2ccc([N+](=O)[O-])cc2)n1-c1ccccc1)N1CCOCC1	CDK2	binding	–	–	> 100 µM
O=S(=O)(O)C[C@@H](O)CO	Uncharacterized protein	isothermal titration calorimetry	Candidatus Pelagibacter ubique	together with: CaCl2 10 mM	2.72 µM and 1.81 µM

Compound	target	assay	test system	conditions	Kd
O=S(=O)(NCCSc1ccccn1)c1ccc(Br)cc1	CDK2 with cyclin A	–	–	–	> 100 µM
C=CC(=O)N1CCN(c2nc(OC[C@@H]3CCCN3C)nc3c(F)c(-c4nc(N)cc(C)c4C(F)(F)F)c(Cl)cc23)[C@@H](C)C1	GTPase KRas, GDP-bound (KRAS, Homo sapiens, UniProt P01116, Q61H)	SPR	–	–	0.78 ± 0.038 µM
COc1ccc(-c2nnc(SCC(=O)Nc3c(F)cc(F)cc3Br)n2C)cc1	CDK2 with cyclin A	–	–	–	> 100 µM
CCCC(CCC)C(=O)O	Histone deacetylase 1 (HDAC1, Homo sapiens, UniProt Q13547)	inhibitor, competition pulldown	SW620 and MV4-11 lysate	1 h	523 µM
O=C(O)CN1CCN(CC(=O)O)CCN(CC(=O)O)CCN(CC(=O)O)CC1	calcium ion	isothermal titration calorimetry	–	–	< 0.1 µM
COc1ccc([C@H]2Sc3ccccc3N(CCN(C)C)C(=O)[C@H]2OC(C)=O)cc1	cone cGMP-gated channel Ictalurus punctatus	channel current, blocker, inside-out patch clamp	–	pH 7.6, +30 mV, 120 mM NaCl, low divalent, together with: 1 mM cGMP	8.7 ± 9.8 µM
O=C(O)CCN1C(=O)C(=Cc2ccc(F)cc2)SC1=S	PPIA	H/D exchange MALDI-MS	–	~100 µM, CypA ~10 µM, pD 7.4	no binding
O=C(O[C@@H]1Cc2c(O)cc(O)cc2O[C@@H]1c1cc(O)c(O)c(O)c1)c1cc(O)c(O)c(O)c1	Beta-casein (CSN2, Bos taurus, UniProt P02666)	binding, isothermal titration calorimetry	Bos taurus, ultrapure water	298 K, no carrageenan	93.5 µM
CC[C@H](C)[C@H](NC(=O)[C@H](CC(C)C)NC(=O)[C@H](Cc1ccc(OP(=O)(O)O)cc1)NC(=O)[C@H](CCC(=O)O)NC(=O)[C@H](CC(=O)O)NC(=O)[C@H](C)NC(=O)[C@H](CC(=O)O)NC(=O)[C@@H](NC(=O)[C@@H](NC(=O)[C@H](CC(=O)O)NC(=O)[C@H](CC(=O)O)NC(=O)[C@H](CCSC)NC(=O)c1ccc2c(c1)C(=O)OC21c2ccc(N(C)C)cc2Oc2cc(N(C)C)ccc21)C(C)C)C(C)C)C(=O)N1CCC[C@H]1C(=O)N[C@@H](CCC(N)=O)C(=O)N[C@@H](CCC(N)=O)C(=O)NCC(=O)N[C@@H](Cc1ccccc1)C(=O)N[C@@H](CC(=O)O)C(=O)O	Crk-like protein, SH2 domain (Homo sapiens, UniProt P46109)	binding	–	–	0.998 µM
OC[C@H]1OC(O)[C@H](O)[C@@H](O)[C@@H]1O (stereo partly drawn)	Hexokinase-3, N-terminal domain (HK3, Homo sapiens, UniProt P52790)	binding, intrinsic tryptophan fluorescence	–	room temperature	3200 ± 400 µM
COc1cc([N+](=O)[O-])ccc1N1C(=O)C2C3C=CC(C)(O3)C2C1=O (stereo not drawn)	PPIA	HDX MALDI-MS	–	–	4 µM
CC(C)(COP(=O)(O)OP(=O)(O)OC[C@H]1O[C@@H](n2cnc3c(N)ncnc32)[C@H](O)[C@@H]1OP(=O)(O)O)[C@@H](O)C(=O)NCCC(=O)NCCS	Acyl-coenzyme A thioesterase THEM4 (THEM4, Homo sapiens, UniProt Q5T1C6)	competitor, competition MS pulldown	SW-620 cell lysate	together with: photo-immobilized beads	16.1 µM
CCN(CC)Cc1cn(Cc2ccc(C(=O)N[C@@H]3CCc4c(C#N)cccc43)cc2)nn1	WD repeat-containing protein 91 residues 392–747	SPR	–	–	2.7 µM
O=C(CCCCCN1C(=O)c2cccc3cccc(c23)C1=O)NO	MBLAC2	inhibitor, competition pulldown	SW620 and MV4-11 lysate	1 h	10.9 µM
NCCCC(=O)O	Sodium- and chloride-dependent taurine transporter (SLC6A6, Homo sapiens, UniProt P31641, G62A)	microscale thermophoresis	–	G62A mutant	no binding
O=C(/C=C/c1ccc(CN(CCO)CCc2c[nH]c3ccccc23)cc1)NO	MBLAC2	inhibitor, competition pulldown	SW620 and MV4-11 lysate	1 h	2.09 µM
Nc1ncnc2c1ncn2[C@@H]1O[C@H](COP(=O)(O)OP(=O)(O)OP(=O)(O)O)[C@@H](O)[C@H]1O	Creatine kinase U-type, mitochondrial (CKMT1A, Homo sapiens, UniProt P12532, H99K)	microscale thermophoresis	–	pH 8.5, H61K mutant, no substrate	17 ± 6 µM
Nc1ccccc1NC(=O)c1ccc(CNC(=O)OCc2cccnc2)cc1	MBLAC2	inhibitor, competition pulldown	SW620 and MV4-11 lysate	1 h	> 30.2 µM
COc1cccc(-n2nnnc2SCC(=O)Nc2c(C)cc(C)cc2C)c1	CDK2 with cyclin A	–	–	–	> 100 µM
CC(=O)Nc1ccc(C(=O)Nc2ccccc2N)cc1	MBLAC2	inhibitor, competition pulldown	SW620 and MV4-11 lysate	1 h	> 30.2 µM
COc1c(C#N)cccc1CC(=O)Nc1ccc2c(c1)CCCN2C(=O)c1ccccc1	WD repeat-containing protein 91 residues 392–747	SPR	–	–	7.3 µM and 7.2 µM

A few entries again:
Compound	target	assay	test system	conditions	Kd
Nc1ccccc1NC(=O)c1ccc(CNC(=O)OCc2cccnc2)cc1	MBLAC2	inhibitor, competition pulldown	SW620 and MV4-11 lysate	1 h	> 30.2 µM
CCCC(CCC)C(=O)O	Histone deacetylase 1 (HDAC1, Homo sapiens, UniProt Q13547)	inhibitor, competition pulldown	SW620 and MV4-11 lysate	1 h	523 µM
COc1cc([N+](=O)[O-])ccc1N1C(=O)C2C3C=CC(C)(O3)C2C1=O (stereo not drawn)	PPIA	HDX MALDI-MS	–	–	4 µM
C[N+](C)(C)CCC(=O)c1cccc2ccccc12	PPIA	HDX MALDI-MS	–	–	4 µM
